Measured values from different studies.
Parts stem from different laboratories: compare values within a part only.

Series 1 — method: RNA Bind-n-Seq; form: RNA; sample: in vitro; concentration: 200 nM; setting: whole 134-nt RNA, ends assumed; with: 150 mM LiCl; reference: input library; direction: higher = stronger binding; each molecule: 7-deaza-guanosine replaces G
Target: Ras GTPase-activating protein-binding protein 1, full length (G3BP1, Homo sapiens, UniProt Q13283)
UniProt Q13283, sequence (whole entry, looked up): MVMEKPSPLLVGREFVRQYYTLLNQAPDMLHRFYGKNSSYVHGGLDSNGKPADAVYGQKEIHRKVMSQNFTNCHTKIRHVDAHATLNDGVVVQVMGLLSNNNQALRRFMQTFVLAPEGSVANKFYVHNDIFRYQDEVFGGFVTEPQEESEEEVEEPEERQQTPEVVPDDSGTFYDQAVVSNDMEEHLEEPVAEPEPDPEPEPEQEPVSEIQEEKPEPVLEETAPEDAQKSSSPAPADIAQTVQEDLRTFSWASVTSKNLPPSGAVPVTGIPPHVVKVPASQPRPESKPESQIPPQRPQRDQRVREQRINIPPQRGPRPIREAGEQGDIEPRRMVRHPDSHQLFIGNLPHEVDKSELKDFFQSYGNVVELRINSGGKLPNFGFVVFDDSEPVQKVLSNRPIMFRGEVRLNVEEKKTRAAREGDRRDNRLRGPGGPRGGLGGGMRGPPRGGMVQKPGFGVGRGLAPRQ
| Sequence | log2 enrichment |
| --- | --- |
| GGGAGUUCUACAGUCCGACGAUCUGCCUCGGGAGGAGCUGUUUGUGACAUCCAAGCUGUGGAACACCAAGCACCACCCCGAGGAUGUGGAGCCUGCCCUCCGGAAGACUCUGGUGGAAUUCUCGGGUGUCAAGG | -0.583 |
| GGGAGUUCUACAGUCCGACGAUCAGUCCUGUGCUACACAUCGUAUGUACCGAAUCGGGUUUUUGGGAGGGUUUUUUUGGGAAAGUAUUAUGUUACGCCGUUCGGAUCUGCACUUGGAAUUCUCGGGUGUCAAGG | -0.672 |
| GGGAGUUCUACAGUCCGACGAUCUGUCCAGCUCUGAAGGGCAAAGUGCAGAAGAUCCUAAUCUGGAAGUGGGGUCAGCCACCAUCUCCCACACCAGUGCCUCGGCCUCCAGAUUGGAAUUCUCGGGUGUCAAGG | 0.998 |
| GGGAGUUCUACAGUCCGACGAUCGCAGGAAGUAAAAACAAAUGGAAAUGCUUCGGAUAGUGGCAGGGGUGGGGGUUGCUAAGGAAAGGGUGGGAUGGGAGUGGGUAAAGAGGUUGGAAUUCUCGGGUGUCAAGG | 0.162 |
| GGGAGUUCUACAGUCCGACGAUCAGUCCUGUGCUACACAUCGUAUGUACCGAAUCAAAUUUAAACCCCCCCAAACCCAAAAAAGUAUUAUGUUACGCCGUUCGGAUCUGCACUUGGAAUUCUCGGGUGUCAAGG | 1.29 |

Series 2 — method: competition protein-binding microarray; form: double-stranded DNA, one strand shown; sample: in vitro; concentration: 2 µM; with: Cbf1 competitor, 0.05 µM; direction: higher = stronger binding
Target: Phosphate system positive regulatory protein PHO4, full length, GST-tagged (PHO4, Saccharomyces cerevisiae, UniProt P07270, residues 1-312)
Setting: whole 60-bp probe, lowest competitor level
Construct (chain): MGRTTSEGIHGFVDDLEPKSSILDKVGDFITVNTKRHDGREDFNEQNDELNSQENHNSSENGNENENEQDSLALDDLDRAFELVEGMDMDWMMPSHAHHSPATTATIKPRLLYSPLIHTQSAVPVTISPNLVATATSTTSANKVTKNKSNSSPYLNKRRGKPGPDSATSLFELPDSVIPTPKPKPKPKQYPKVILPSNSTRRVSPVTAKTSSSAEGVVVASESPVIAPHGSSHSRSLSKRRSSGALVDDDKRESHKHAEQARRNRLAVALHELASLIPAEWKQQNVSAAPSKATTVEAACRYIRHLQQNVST
| Sequence | fluorescence intensity [a.u.] |
| --- | --- |
| TGCGCAACAACTTGTATAGTGGGTGTATGTCTAGAAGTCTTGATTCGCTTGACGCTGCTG | 5240 |
| CTATTGATGAACAATCACGGCCTCTTGGCTAAGCCCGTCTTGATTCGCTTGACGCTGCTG | 3520 |
| CTTTCCCGATCTTGAGCCGTGGGTGTAGCACATTTGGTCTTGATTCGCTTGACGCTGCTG | 4860 |
| CATACCCAACCTTGTTACGTGGGTGAAGATATTTGTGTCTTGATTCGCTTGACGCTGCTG | 6250 |
| GAAAGAGCGAAAATACTCGTGATGGAAACTCTTTTAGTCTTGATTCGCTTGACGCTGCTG | 6550 |

Series 3 — method: protein binding microarray; form: double-stranded DNA, one strand shown; sample: in vitro; concentration: not given; reference: not given; direction: higher = stronger binding
Target: Histone acetyltransferase KAT6A, both winged helices, GST fusion (KAT6A, Homo sapiens, UniProt Q92794, residues 1-181)
Setting: 8-mer, flanks averaged, mean of 2 arrays, mostly near background
Target sequence (chain): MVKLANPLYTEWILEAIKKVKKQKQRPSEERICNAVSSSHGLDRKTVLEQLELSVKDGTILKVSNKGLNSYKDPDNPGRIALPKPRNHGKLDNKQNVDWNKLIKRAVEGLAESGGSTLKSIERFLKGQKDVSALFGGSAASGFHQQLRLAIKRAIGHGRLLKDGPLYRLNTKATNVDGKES
| Sequence | E-score |
| --- | --- |
| GAAACTCC | -0.0109 |
| AAGATAGC | -0.00818 |
| CTTACTTA | -0.0878 |
| AATTCTGT | -0.0214 |
| CCCACGAA | -0.124 |
| CAGAAGCA | -0.215 |
| CCCTTAAA | -0.225 |
| AAAGGCAA | -0.21 |
| ATCCACAG | -0.0813 |

Other studies, line by line
| Substance | target | test | system | conditions | scale | quantity | value |
| --- | --- | --- | --- | --- | --- | --- | --- |
| PhoQ, residues 284 288 289 292 302 303 TNSAEL | PhoP, residues 12 14 15 18 19 NQGLL (Escherichia coli, UniProt P23836) | Sort-seq, measured: YFP reporter | E. coli | PhoQ-PhoP variant library, with: 10 µM Mg2+ | reference: high Mg2+ state, higher = stronger signaling | fold induction | 6.92 |

Some of these lines once more (series 2):
| Sequence | fluorescence intensity [a.u.] |
| --- | --- |
| CTTTCCCGATCTTGAGCCGTGGGTGTAGCACATTTGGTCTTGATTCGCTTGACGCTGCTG | 4860 |
| CATACCCAACCTTGTTACGTGGGTGAAGATATTTGTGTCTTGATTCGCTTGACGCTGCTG | 6250 |
